Measured values gathered from unrelated publications.
A part holds a random share of what one study measured. Substitutions count along the parent as printed.

Sample 1
Target: Phosphate system positive regulatory protein PHO4, full length, GST-tagged (PHO4, Saccharomyces cerevisiae, UniProt P07270, residues 1-312)
Method: competition protein-binding microarray
Molecule type: double-stranded DNA, one strand shown
Matrix: in vitro
Concentration: 2 µM
Notes: whole 60-bp probe, lowest competitor level
Added: Cbf1 competitor, 0.05 µM
Reading: higher = stronger binding
Endpoint: fluorescence intensity
Shared flanks, not repeated: … GTCTTGATTCGCTTGACGCTGCTG
Residues (chain): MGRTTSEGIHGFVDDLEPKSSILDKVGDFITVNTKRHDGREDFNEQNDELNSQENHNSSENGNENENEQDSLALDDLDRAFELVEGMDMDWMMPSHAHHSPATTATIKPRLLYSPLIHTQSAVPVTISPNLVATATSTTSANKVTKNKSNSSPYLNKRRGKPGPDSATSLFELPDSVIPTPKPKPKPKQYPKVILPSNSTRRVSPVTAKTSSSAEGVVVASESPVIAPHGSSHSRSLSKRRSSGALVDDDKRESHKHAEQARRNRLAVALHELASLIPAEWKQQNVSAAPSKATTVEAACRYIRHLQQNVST
TAGGCCGTCTTATGTAACGTGGTGAACGCTGCCTAG: 7180 a.u.
GTAAGTAATGTACTTCACGTGTGTTCCACTGGTAAT: 14000 a.u.
GACCCGCCCCTGGGTCACGTGTTGCCTGCGGACCCG: 14600 a.u.
CGCCGGCTGGCGCTTCCCGTGGAAGGGTGTTTGACT: 4940 a.u.
GTCTTGTCTCATTGCAATGTGGGTGTCCCCACTTCA: 5850 a.u.
TGAGAACATCCAACTAGCGTGCCGATGCAATCCCAG: 6770 a.u.
TATGTCCAATAGAGTCGCGTGCGATACAACTTCGTC: 9720 a.u.
AACAATGGTCATAAACATGTGGTGAGCAATGTTTCA: 10500 a.u.
CATACCCAACCTTGTCACCGTACTTAAGATATTTGT: 3920 a.u.
ACCAGCTGTTCCCAGCACCTGACGATTACCGACCAG: 4860 a.u.
CGGGGTTAAGTTTGCTTCGTGGGTGGCTTGCAGCAG: 6710 a.u.
CATACCCAACCTTGCAATGTGGGTGAAGATATTTGT: 6740 a.u.

Sample 2
Target: RNA binding protein fox-1 homolog 2, RRM domain, GST-SBP tag (RBFOX2, Homo sapiens, UniProt O43251-10, residues 100-194)
Method: RNA Bind-n-Seq
Molecule type: RNA
Matrix: in vitro
Concentration: 365 nM
Notes: natural RNA segment, single round, ends assumed
Relative to: no-protein control
Reading: higher = stronger binding
Endpoint: RBNS enrichment (R)
Shared flanks, not repeated: GGGAGUUCUACAGUCCGACGAUC … UGGAAUUCUCGGGUGCCAA
Target sequence (chain): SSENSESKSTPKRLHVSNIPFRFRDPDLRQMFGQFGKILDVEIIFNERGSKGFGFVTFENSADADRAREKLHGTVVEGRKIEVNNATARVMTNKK
AUGCGCAGAUGUGAGGGACACGCUCACCUUAGCCUUAAGGGGGUAGGAGUGAUGUUUUGGGGGAGGCUUUGAGAGCAAAAACGAGGAAGAGGGCUGAGCUGAGCUUUCGG: 0.882
CCACCCCCACUGAAAAUGGAAUCUUCACUCCCUUGACUACUUGAUUACUGCAUUUCUGCUCUUGGUUCUAGCUGUGUGAACUCUAACUUCUUUCCUGAUGGGGAUCUCUG: 1.84
AGAUGUCUGUUGGAUUCAUGUCUUUUGCUAUAGUUCAGUAGCUUCUGCUAAAUUUCACUGAUUUUAAUCAUGCUGGAGACCUUAACUCCCAUCCUGAUACAUCCUGAAGU: 0.257
ACAUAGAUGUAAAUAAGGAACAGUUUGUCACACCUGACCCCAGUGAGUGGGGGGAAGGGCAGCUGUUAUCUUGCCAAGCCUGGUUGUAAUUUGUAACCAUUUUCUAUUUG: 0.378
AUCUGUCCACAAUGCCUACUGUCUCUGUGGUGAAAUAUUAAAAUAUGUAAGCUCACAUGGAAGUUUAAGAAUUUCUGUGUUAAUACUUGGAAUAACCCAGAGAAAAGAAG: 0.647
CGUCUUGGUGCCUUUUGUGUGACACGCCUUGCCGAUGGCUUGACAUGCGCAGAUGUGAGGGACACGCUCACCUUAGCCUUAAGGGGGUAGGAGUGAUGUUUUGGGGGAGG: 0.304
GCCACUUCAUCUUAUGUGCCGCUGCUUGUCUUCAGCCCAUUAGCCAGGUACUGAGCGUCAGGCUCUGCAUAGCAGUUAAGCAGCACUGGUAGUGGUCUGCCGUGCAGGGG: 0.276
ACUACUUUCAGCUUCCUGCUCCACCCCUGGCUUGCAAGCCCUCUUUUUGGCCCCUAUUGAGGAUGAAAUGUCUCUCAUUUAGUAUAAACAGUAACAGCCCACGGCAGUGU: 0.396
UGAGAAGCCUCCACAGCAGGACCACACCACCACCACCGACUCAGAGAUGGAGGAGCCCUACCUGCAAGGAUCCAAAGAGGAGGGCACUCCCCUCAAACUCAAGUGUGAGC: 0.373
AACUAUCUGUGUUGGGCUUCCCUGACACGGGAGAGGGGCAAGGAUAGACGAUUGACAUGGCACUGAUGGUCAGUUGCCCAGGGAGGCCGCUUACUCUGGAUGCAGAUGGC: 0.493

Sample 3
Target: CCND1, cyclin fold, Cln2 fusion (human)
Method: yeast growth competition, sequencing
Matrix: yeast
Notes: weak parent motif
Relative to: not given
Reading: higher = stronger binding
Endpoint: normalised enrichment score
Parent: GMNC docking peptide (human); KNAKRNLSSEFAN; partner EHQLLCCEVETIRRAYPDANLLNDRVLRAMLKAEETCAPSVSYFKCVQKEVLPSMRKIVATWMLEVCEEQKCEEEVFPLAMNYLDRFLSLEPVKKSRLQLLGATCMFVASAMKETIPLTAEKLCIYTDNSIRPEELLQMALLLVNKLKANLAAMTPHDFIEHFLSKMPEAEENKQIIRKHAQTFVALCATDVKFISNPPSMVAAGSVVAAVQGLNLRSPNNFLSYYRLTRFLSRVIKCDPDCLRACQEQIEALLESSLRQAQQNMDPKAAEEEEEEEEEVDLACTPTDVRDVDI
KNAKRNLSSEHAN [F11H]: -0.15
KCAKRNLSSEFAN [N2C]: 0.511
KNAKRNLLSEFAN [S8L]: 1
KNAKRNASSEFAN [L7A]: 0.412
KNAKRNLSVEFAN [S9V]: 0.462
KNAERNLSSEFAN [K4E]: -0.132
KNAKRNLCSEFAN [S8C]: 0.195

Further values, each from its own experiment
PhoQ, residues 284 288 289 292 302 303 WSHMKI  fold induction (PhoP, residues 12 14 15 18 19 YHFSH (Escherichia coli, UniProt P23836); Sort-seq, item: YFP reporter; E. coli; PhoQ-PhoP variant library, added: 10 µM Mg2+; relative to: high Mg2+ state, higher = stronger signaling): 2.63

Repeated from above (sample 2):
ACUACUUUCAGCUUCCUGCUCCACCCCUGGCUUGCAAGCCCUCUUUUUGGCCCCUAUUGAGGAUGAAAUGUCUCUCAUUUAGUAUAAACAGUAACAGCCCACGGCAGUGU: 0.396
UGAGAAGCCUCCACAGCAGGACCACACCACCACCACCGACUCAGAGAUGGAGGAGCCCUACCUGCAAGGAUCCAAAGAGGAGGGCACUCCCCUCAAACUCAAGUGUGAGC: 0.373
AUGCGCAGAUGUGAGGGACACGCUCACCUUAGCCUUAAGGGGGUAGGAGUGAUGUUUUGGGGGAGGCUUUGAGAGCAAAAACGAGGAAGAGGGCUGAGCUGAGCUUUCGG: 0.882
CCACCCCCACUGAAAAUGGAAUCUUCACUCCCUUGACUACUUGAUUACUGCAUUUCUGCUCUUGGUUCUAGCUGUGUGAACUCUAACUUCUUUCCUGAUGGGGAUCUCUG: 1.84
